Published values of several laboratories.
Compare with care: the assays were run in different laboratories. “And” joins repeats or separate records; there may be more than shown. Numbers after ± are the reported error.

| SMILES | assay | system | setting | how to read | endpoint | result |
| --- | --- | --- | --- | --- | --- | --- |
| N#Cc1ccc2c(c1)[C@H]1CCCN(C(=O)c3ccc4[nH]cnc4c3)[C@H]1C2 |  | human | 40 mg, end of trial |  | mean ACTH level | 5.9 pmol/L |
| Cn1cc([C@H]2C[C@H]3CSC(N)=N[C@@]3(c3ccc(F)cc3F)CO2)cn1 |  | male 129/SVE mouse, CSF | subcutaneous, 50 mg/kg, 9 h |  | CSF concentration | 439 nM |
| Cc1ccc([C@@H]2O[C@H](CO)[C@@H](O)[C@H](O)[C@H]2O)cc1Cc1ccc(-c2ccc(F)cc2)s1 | measured: inorganic phosphorus | Japanese type 2 diabetes patients | 400 mg, day 1, 24 h urine collection | baseline: baseline | urinary phosphate excretion change | -154 mg |
| O=C(O)/C=C/c1ccccc1 |  | human CSF | concentration not given, mean |  | CSF concentration | not detected |
| COc1ccc2c(=O)n(C)c(-c3ccccc3)nc2c1 |  | Sprague-Dawley rat, male, testis | oral, 30 mg/kg, 0.5 h | baseline: testis over plasma | tissue/plasma ratio | 1.33 |
| Cn1cc(Nc2nccc(-c3ccc4c(c3)CN(C3COC3)CC[C@H]4NC(=O)c3cn(C(C)(C)C)nn3)n2)cn1 |  | human, whole blood | 150 mg twice daily, day 7 | baseline: pre-dose baseline | non-switched memory B cell change | 15.7% |
| O=C1C[C@@H](c2ccc(O[C@@H]3O[C@H](C(=O)O)[C@@H](O)[C@H](O)[C@H]3O)cc2)Oc2cc(O)cc(O)c21 |  | human CSF | concentration not given, mean |  | CSF concentration | not detected |
| CCCCC1=NC2(CCCC2)C(=O)N1Cc1ccc(-c2ccccc2S(=O)(=O)Nc2noc(C)c2C)c(COCC)c1 |  | healthy adult volunteers, plasma | oral, 800 mg, single dose, fed, crushed tablet |  | AUC(0-inf) | 177000 ng·h/mL |
| COc1cc(C(=O)NC2CCN(C)CC2)c(F)cc1Nc1ncc(C(F)(F)F)c(Oc2cccc3c2C(=O)N(C)C3)n1 |  | human patients, plasma | oral, 10 mg single dose, geometric mean |  | dose-normalised AUC(0-inf) | 52.7 nmol·h/L per mg |
| CC(C)C(=O)O[C@H]1[C@H](C)OC(=O)[C@@H]1Cc1ccccc1 | FOCUS PEARL groundwater modelling | soil | geometric mean input |  | KOC | 118 mL/g |
| C[C@@H]1CCO[C@H]2Cn3cc(C(=O)NCc4ccc(F)cc4F)c(=O)c(O)c3C(=O)N12 |  | human paediatric patients, weight sample D to under sample E kg, plasma | oral, 50 mg film-coated tablet, 24 h, steady state, geometric mean, population PK post-hoc, N 17 |  | trough concentration (C24) | 828 ng/mL |
| CC[C@H](C)[C@H](NC(=O)[C@H](Cc1ccccc1)NC(=O)[C@H](CCC(=O)O)NC(=O)[C@H](CCCCNC(=O)COCCOCCNC(=O)COCCOCCNC(=O)CC[C@H](NC(=O)CCCCCCCCCCCCCCCCC(=O)O)C(=O)O)NC(=O)[C@H](C)NC(=O)[C@H](C)NC(=O)[C@H](CCC(N)=O)NC(=O)CNC(=O)[C@H](CCC(=O)O)NC(=O)[C@H](CC(C)C)NC(=O)[C@H](Cc1ccc(O)cc1)NC(=O)[C@H](CO)NC(=O)[C@H](CO)NC(=O)[C@@H](NC(=O)[C@H](CC(=O)O)NC(=O)[C@H](CO)NC(=O)[C@@H](NC(=O)[C@H](Cc1ccccc1)NC(=O)[C@@H](NC(=O)CNC(=O)[C@H](CCC(=O)O)NC(=O)C(C)(C)NC(=O)[C@@H](N)Cc1cnc[nH]1)[C@@H](C)O)[C@@H](C)O)C(C)C)C(=O)N[C@@H](C)C(=O)N[C@@H](Cc1c[nH]c2ccccc12)C(=O)N[C@@H](CC(C)C)C(=O)N[C@H](C(=O)N[C@@H](CCCNC(=N)N)C(=O)NCC(=O)N[C@@H](CCCNC(=N)N)C(=O)NCC(=O)O)C(C)C | 12-lead Holter ECG | healthy humans | subcutaneous, 1.5 mg once weekly, 24 h, steady state | baseline: placebo | QT change from baseline | -21.9 ms |
| CCOc1c([C@H](C)n2nc(C)c3c(N)ncnc32)cc(Cl)c(F)c1[C@@H]1CNC(=O)C1 | measured: QTcF change above 60 ms | previously treated B-cell malignancy | oral, 20 mg once daily, overall population | baseline: baseline | ECG observations | 1.2% |
| C=CC(=O)N1CCC[C@@H](n2nc(-c3ccc(Oc4ccccc4)cc3)c3c(N)ncnc32)C1 |  | male Wistar rat, plasma | oral, 40 mg/kg |  | AUMC(0-inf) | 18400 ± 265 ng·h²/mL |
| CCN1/C(=C/C(C)=O)Sc2ccc(F)cc21 |  | cynomolgus monkey | oral, 10 mg/kg, 24 h post-dose |  | QTc interval (Bazett) | 317 ± 14 ms |
| CCn1cc(C(=O)N2CCOCC2)c(=O)c2cc(NC3Cc4ccccc4C3)cnc21 |  | human, fasted | oral suspension, 15 mg single dose, median |  | Tmax | 1.5 h |
| O=C1c2ccncc2C(=O)c2c1[nH]c1ccccc21 |  | Sprague-Dawley rat, female, lung | intravenous, 5 mg/kg, 24 h |  | tissue concentration | 0.444 ± 0.581 nmol/mg |
| C=CC(=O)Nc1cc(Nc2nccc(-c3cn(C)c4ccccc34)n2)c(OC)cc1N(C)CCN(C)C | storage stability | human dried blood spot | 2 h, -80 °C, LQC level |  | recovery | 98.1% |
| CC1(C)S[C@@H]2[C@H](NC(=O)[C@H](N)c3ccc(O)cc3)C(=O)N2[C@H]1C(=O)O |  | male Hartley guinea pigs, anaesthetized | intravenous, 3 mg/kg group, baseline before infusion |  | heart rate | 220 ± 0.4 beats/min |
| O=C(NCc1ccc(CNCCOCCO)cc1)c1csc2nc[nH]c(=O)c12 | haemolysis | human red blood cells | 1 h, 37 °C |  | EC50 | > 100 µM |
| CCc1nc(C(N)=O)c(Nc2ccc(N3CCC(N4CCN(C)CC4)CC3)c(OC)c2)nc1NC1CCOCC1 |  | Japanese patients, plasma | oral, 80 mg, cycle 0 day -2, single dose, mean |  | Cmax | 67.1 ng/mL |
| O=C(Nc1cnccc1Cl)N1CCN(Cc2ccc3c(c2)OC(F)(F)O3)CC1 | measured: Fatigue | healthy elderly humans | 100 mg once daily, 10 days |  | volunteers with adverse event | 33.3% |
| N[C@@H]1c2ccccc2OC12CCN(c1cnc3c(N4CCCc5ncccc54)n[nH]c3n1)CC2 |  | advanced metastatic solid tumour patients, plasma | oral, 50 mg once daily, cycle 1 day 15, geometric mean |  | AUC(0-tau) | 8770 ng·h/mL |

| SMILES | assay | system | setting | how to read | endpoint | result |
| --- | --- | --- | --- | --- | --- | --- |
| Cc1cc(-c2nccc3c2ccn3CC(=O)Nc2ccc(-c3cnccn3)cn2)ccn1 |  | healthy human volunteers | oral, 40 mg single dose, single ascending dose |  | respiratory thoracic mediastinal TEAEs | 0% |
| C=CCN1CC(=O)N2[C@@H](Cc3ccc(O)cc3F)C(=O)N(Cc3cccc(N4CC(N5CCN(CC)CC5)C4)n3)C[C@@H]2N1C(=O)NCc1ccccc1 |  | advanced solid tumour patients | oral, 120 mg twice daily, any grade, dose-escalation |  | treatment-related diarrhoea | 37.5% |
| CO[C@@H]1[C@H](O)[C@@H](CO)O[C@H]1n1c([N+](=O)[O-])nc2c(=O)[nH]c(N)nc21 | depurination, RP-HPLC | citrate-phosphate buffer 0.5 mM | 2580 min, pH 7, 37 °C |  | nucleoside remaining fraction | 0.593 |
| CN1C(=O)[C@@H](NC(=O)c2nnc(Cc3ccccc3)[nH]2)COc2cccnc21 |  | healthy human, fasted, plasma | oral, 800 mg single dose, median |  | Tmax | 4 h |
| Cc1cc(OCCOCCC(F)(F)P(=O)(O)O)ccc1CCc1cnc2c(N)nc3cc(CCC(=O)O)ccc3c2c1 |  | human, serum | intratumoral, 200 µg every 2 weeks, cycle 2 day 15 |  | AUC(tau) | 20.1 ng·h/mL |
| C[C@H](CS)C(=O)N1CCC[C@H]1C(=O)O |  | male Hartley guinea pigs, anaesthetized | intravenous, 10 mg/kg group, baseline before infusion |  | heart rate | 237 ± 0.9 beats/min |
| CO[C@@H]1[C@H](OC(=O)N2CC(CCN3CCOCC3)C2)CC[C@]2(CO2)[C@H]1[C@@]1(C)O[C@@H]1CC=C(C)C |  | human | dose not given, day 28, multiple ascending dose | baseline: baseline | systolic blood pressure change | -0.3 ± 10.7 mmHg |
| COc1ccc(CCC(=O)O)cc1O[C@@H]1O[C@H](C(=O)O)[C@@H](O)[C@H](O)[C@H]1O |  | human CSF | concentration not given, mean |  | CSF concentration | not detected |
| CNC(=O)c1ccc(-c2cnc3ncc(Cc4ccc5ncccc5c4)n3n2)cc1F |  | Japanese patients | oral, 400 mg, grade 3/4 |  | Urticaria dose reduction/interruption | 2% |
| [18F]c1ccc(-c2ccc3c(c2)[nH]c2ccncc23)cn1 | ex vivo biodistribution | normal B6SJL mice, cecum | intravenous, 30 min |  | uptake | 0.756 ± 0.231 SUV |
| O=C(Nc1nc2cccc(-c3ccc(CN4CCS(=O)(=O)CC4)cc3)n2n1)C1CC1 | measured: musculoskeletal disorders | human rheumatoid arthritis patients | oral, 30 mg once daily, 4 weeks, regardless of relatedness |  | treatment-emergent adverse events | 0% |
| CCO[C@H]1CCN(Cc2c(OC)cc(C)c3[nH]ccc23)[C@H](c2ccc(C(=O)O)cc2)C1 |  | PNH patients, active haemolysis | oral, 100 mg, 8 weeks, treatment |  | incidence of haematuria | 0% |
| CNC(=O)c1ccc(-c2cnc3ncc(Cc4ccc5ncccc5c4)n3n2)cc1F |  | gastric cancer patients | oral, 600 mg twice daily, all grades RP2D expansion |  | AST increased incidence | 11% |
| CN(CCC(=O)O)C(=O)c1ccc2c(c1)CC[C@@H]1[C@@H]2CC[C@]2(C)C(c3cncc(F)c3)=CC[C@@H]12 |  | premenopausal women, endometriosis pain, serum | 60 mg twice daily, visit 4, mean | baseline: baseline | indirect bilirubin change | 0.62 mg/dL |
| COc1cc(C(=O)NC2CCN(C)CC2)c(F)cc1Nc1ncc(C(F)(F)F)c(Oc2cccc3c2C(=O)N(C)C3)n1 |  | human, Taiwanese, plasma | oral, 200 mg once daily multiple dose, geometric mean |  | AUC(0-tau) steady state | 30.9 µM·h |
| O=C(N[C@H](Cc1c[nH]c2ccccc12)C(=O)Nc1ccncc1)c1ccc(-c2ccc(F)c(Cl)c2)cc1F |  | Swiss Webster mouse, female, intestine | oral, 50 mg/kg, 2 h, 20% Kolliphor vehicle |  | concentration | 55 µM |
| O=C(O)CCC(=O)O.[2H]C([2H])([2H])Oc1cc(C)c2[nH]ccc2c1CN1CC[C@@H](C2CC2)C[C@H]1c1ccc(C(=O)O)cc1 |  | human, plasma | 50 mg twice daily, day 1, multiple ascending dose, geometric mean |  | AUC(0-tau) | 9770 ng·h/mL |
| CCc1c(-c2ccccc2)c(-c2ccccc2)nn1-c1ccccc1-c1cccc(OCC(=O)O)c1 |  | Sprague-Dawley rat, -Kidney | oral, 10 mg/kg, 1 h |  | tissue concentration | 3010 ng/g and 4470 ng/g |
| O=C(COc1ccc(Cl)cc1)NC12CC(c3nnc([C@H]4C[C@@H](OC(F)(F)F)C4)o3)(C1)C2 | measured: Myalgia | human | oral, 100 mg once daily, 14 days |  | adverse event incidence | 14.3% |
| CC[C@H](C)[C@H](NC(=O)[C@H](Cc1ccccc1)NC(=O)[C@H](CCC(=O)O)NC(=O)[C@H](CCCCNC(=O)COCCOCCNC(=O)COCCOCCNC(=O)CC[C@H](NC(=O)CCCCCCCCCCCCCCCCC(=O)O)C(=O)O)NC(=O)[C@H](C)NC(=O)[C@H](C)NC(=O)[C@H](CCC(N)=O)NC(=O)CNC(=O)[C@H](CCC(=O)O)NC(=O)[C@H](CC(C)C)NC(=O)[C@H](Cc1ccc(O)cc1)NC(=O)[C@H](CO)NC(=O)[C@H](CO)NC(=O)[C@@H](NC(=O)[C@H](CC(=O)O)NC(=O)[C@H](CO)NC(=O)[C@@H](NC(=O)[C@H](Cc1ccccc1)NC(=O)[C@@H](NC(=O)CNC(=O)[C@H](CCC(=O)O)NC(=O)C(C)(C)NC(=O)[C@@H](N)Cc1cnc[nH]1)[C@@H](C)O)[C@@H](C)O)C(C)C)C(=O)N[C@@H](C)C(=O)N[C@@H](Cc1c[nH]c2ccccc12)C(=O)N[C@@H](CC(C)C)C(=O)N[C@H](C(=O)N[C@@H](CCCNC(=N)N)C(=O)NCC(=O)N[C@@H](CCCNC(=N)N)C(=O)NCC(=O)O)C(C)C | hypoglycaemic clamp | type 2 diabetes patients | dose not given, nadir plasma glucose 5.5 mmol/L |  | heart rate change | 0 beats/min |
| COc1ncc(-c2nc3c(n2C(C)C)[C@H](c2ccc(Cl)cc2)N(c2cc(Cl)cn(C)c2=O)C3=O)c(OC)n1 |  | human patients, plasma | oral, 400 mg, high-dose arm, cycle 1 day 1 |  | median half-life | 18.8 h |
| C[C@@H](Nc1cc(F)cc(F)c1)c1cc(C(=O)N(C)C)cc2c(=O)cc(N3CCOCC3)oc12 | measured: aspartate aminotransferase increased | patients with advanced solid tumours | oral, dose not given, dose expansion phase I |  | treatment-related serious adverse events | 5% |
